Measurements collected from several papers.
Every numbered part comes from another study and shows a few of its results, in no order. Several values in a cell are separate wells, animals, samples, runs or records.
UniProt O95382, sequence (whole entry, looked up): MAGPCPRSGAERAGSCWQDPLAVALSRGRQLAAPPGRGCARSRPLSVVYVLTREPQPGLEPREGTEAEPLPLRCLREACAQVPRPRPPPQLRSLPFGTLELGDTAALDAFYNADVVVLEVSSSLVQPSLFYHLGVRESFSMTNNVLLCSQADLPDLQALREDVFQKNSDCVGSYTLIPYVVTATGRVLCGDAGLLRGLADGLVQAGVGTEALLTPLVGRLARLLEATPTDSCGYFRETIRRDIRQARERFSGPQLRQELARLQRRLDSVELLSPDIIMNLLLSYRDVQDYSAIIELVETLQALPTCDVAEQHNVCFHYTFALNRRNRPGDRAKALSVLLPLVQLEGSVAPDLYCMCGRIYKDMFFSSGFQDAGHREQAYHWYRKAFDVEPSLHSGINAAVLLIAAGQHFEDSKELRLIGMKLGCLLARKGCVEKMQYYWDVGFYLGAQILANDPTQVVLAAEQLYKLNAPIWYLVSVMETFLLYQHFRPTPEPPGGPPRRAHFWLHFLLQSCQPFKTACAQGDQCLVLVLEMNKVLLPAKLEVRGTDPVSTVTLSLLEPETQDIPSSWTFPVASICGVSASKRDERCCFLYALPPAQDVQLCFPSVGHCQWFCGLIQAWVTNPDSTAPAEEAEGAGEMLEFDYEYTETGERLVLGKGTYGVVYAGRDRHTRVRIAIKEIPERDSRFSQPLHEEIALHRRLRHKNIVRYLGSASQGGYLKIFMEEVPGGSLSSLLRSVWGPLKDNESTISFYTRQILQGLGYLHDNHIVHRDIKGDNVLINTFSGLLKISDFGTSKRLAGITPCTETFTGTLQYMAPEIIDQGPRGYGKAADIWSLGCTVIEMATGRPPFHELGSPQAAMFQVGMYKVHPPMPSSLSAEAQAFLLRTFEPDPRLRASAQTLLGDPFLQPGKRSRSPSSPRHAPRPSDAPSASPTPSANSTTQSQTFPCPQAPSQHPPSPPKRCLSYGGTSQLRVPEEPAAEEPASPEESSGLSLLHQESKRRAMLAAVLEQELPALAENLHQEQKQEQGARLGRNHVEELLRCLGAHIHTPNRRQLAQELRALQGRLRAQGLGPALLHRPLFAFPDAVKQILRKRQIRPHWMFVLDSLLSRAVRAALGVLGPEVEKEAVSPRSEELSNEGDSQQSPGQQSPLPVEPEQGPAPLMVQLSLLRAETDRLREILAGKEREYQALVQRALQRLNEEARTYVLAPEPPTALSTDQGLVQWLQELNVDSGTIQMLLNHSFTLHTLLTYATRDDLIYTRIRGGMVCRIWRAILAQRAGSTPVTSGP
UniProt P27448, sequence (whole entry, looked up): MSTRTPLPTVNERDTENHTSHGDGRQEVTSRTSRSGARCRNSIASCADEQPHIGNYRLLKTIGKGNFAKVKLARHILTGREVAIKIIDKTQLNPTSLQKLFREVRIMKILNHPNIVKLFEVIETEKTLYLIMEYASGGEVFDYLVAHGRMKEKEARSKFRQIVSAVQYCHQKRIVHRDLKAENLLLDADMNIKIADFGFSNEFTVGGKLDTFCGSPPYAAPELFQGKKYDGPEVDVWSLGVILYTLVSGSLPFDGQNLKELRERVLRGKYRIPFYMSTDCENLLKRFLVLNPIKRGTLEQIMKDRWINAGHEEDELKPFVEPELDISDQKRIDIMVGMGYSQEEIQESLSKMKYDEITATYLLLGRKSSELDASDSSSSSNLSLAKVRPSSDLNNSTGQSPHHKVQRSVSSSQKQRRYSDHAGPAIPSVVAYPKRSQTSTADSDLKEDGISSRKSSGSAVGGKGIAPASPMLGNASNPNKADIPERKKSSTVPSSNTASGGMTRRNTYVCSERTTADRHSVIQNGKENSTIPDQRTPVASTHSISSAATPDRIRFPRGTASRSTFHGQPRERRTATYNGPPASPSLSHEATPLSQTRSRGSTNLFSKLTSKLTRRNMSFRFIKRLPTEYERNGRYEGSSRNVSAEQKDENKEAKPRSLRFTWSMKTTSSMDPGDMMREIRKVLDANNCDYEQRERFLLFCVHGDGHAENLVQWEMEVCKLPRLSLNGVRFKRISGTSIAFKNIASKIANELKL
UniProt P51956, sequence (whole entry, looked up): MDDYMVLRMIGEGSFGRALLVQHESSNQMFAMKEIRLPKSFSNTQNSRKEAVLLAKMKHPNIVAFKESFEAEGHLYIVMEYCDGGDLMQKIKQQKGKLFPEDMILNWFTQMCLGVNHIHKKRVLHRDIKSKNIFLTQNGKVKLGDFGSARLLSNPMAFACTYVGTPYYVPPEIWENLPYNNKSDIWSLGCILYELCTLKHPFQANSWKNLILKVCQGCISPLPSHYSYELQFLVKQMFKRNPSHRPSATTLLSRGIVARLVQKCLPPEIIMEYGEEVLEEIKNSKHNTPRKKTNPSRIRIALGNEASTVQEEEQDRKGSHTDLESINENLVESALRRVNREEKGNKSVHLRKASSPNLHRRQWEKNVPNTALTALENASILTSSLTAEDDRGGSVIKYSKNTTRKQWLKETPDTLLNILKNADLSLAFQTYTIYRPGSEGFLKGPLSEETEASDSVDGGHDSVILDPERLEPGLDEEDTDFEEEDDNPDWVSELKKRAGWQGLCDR

Block 1 — tested at: 1 µM
Structure (SMILES): Cc1cc(-n2nc(Cc3cc(F)cc(C(F)(F)F)c3)nc2C)ccc1C(N)=O
PIK3CA (Homo sapiens, UniProt P42336, Q546K); cell-free assay, competition with immobilised ligand — remaining binding: 76%.
For BMP2K (Homo sapiens, UniProt Q9NSY1); cell-free assay, competition with immobilised ligand: remaining binding read 100%.
For CDK13 (Homo sapiens, UniProt Q14004); cell-free assay, competition with immobilised ligand: remaining binding read 100%.
For STK32C (Homo sapiens, UniProt Q86UX6); cell-free assay, competition with immobilised ligand: remaining binding read 100%.
ERN1 (Homo sapiens, UniProt O75460); cell-free assay, competition with immobilised ligand — remaining binding: 100%.
MAP3K6 (Homo sapiens, UniProt O95382); cell-free assay, competition with immobilised ligand — remaining binding: 100%.
For MET (Homo sapiens, UniProt P08581, Y1235D); cell-free assay, competition with immobilised ligand: remaining binding read 90%.
It gave 100% for remaining binding (NEK3 (Homo sapiens, UniProt P51956); cell-free assay, competition with immobilised ligand).
For EGFR (Homo sapiens, UniProt P00533, T790M); cell-free assay, competition with immobilised ligand: remaining binding read 94%.
For BMPR1B (Homo sapiens, UniProt O00238); cell-free assay, competition with immobilised ligand: remaining binding read 100%.
HASPIN (Homo sapiens, UniProt Q8TF76); cell-free assay, competition with immobilised ligand — remaining binding: 100%.
The remaining binding was 88% (CDK19 (Homo sapiens, UniProt Q9BWU1); competition binding).
WEE1 (Homo sapiens, UniProt P30291); cell-free assay, competition with immobilised ligand — remaining binding: 100%.
The remaining binding was 100% (CHUK (Homo sapiens, UniProt O15111); cell-free assay, competition with immobilised ligand).
It gave 100% for remaining binding (MAP3K15 (Homo sapiens, UniProt Q6ZN16); cell-free assay, competition with immobilised ligand).
The remaining binding was 100% (AAK1 (Homo sapiens, UniProt Q2M2I8); binding).
For MET (Homo sapiens, UniProt P08581, M1250T); cell-free assay, competition with immobilised ligand: remaining binding read 80%.
It gave 100% for remaining binding (FGFR1 (Homo sapiens, UniProt P11362); cell-free assay, competition with immobilised ligand).
STK10 (Homo sapiens, UniProt O94804); cell-free assay, competition with immobilised ligand — remaining binding: 100%.
It gave 100% for remaining binding (BMPR2 (Homo sapiens, UniProt Q13873); cell-free assay, competition with immobilised ligand).
It gave 100% for remaining binding (EGFR (Homo sapiens, UniProt P00533, del747-750/T751S); cell-free assay, competition with immobilised ligand).
It gave 100% for remaining binding (Ribosomal protein S6 kinase alpha-6, C-terminal kinase domain (RPS6KA6, Homo sapiens, UniProt Q9UK32); cell-free assay, competition with immobilised ligand).
The remaining binding was 100% (MYLK4 (Homo sapiens, UniProt Q86YV6); cell-free assay, competition with immobilised ligand).
AKT2 (Homo sapiens, UniProt P31751); cell-free assay, competition with immobilised ligand — remaining binding: 100%.
MAP2K4 (Homo sapiens, UniProt P45985); cell-free assay, competition with immobilised ligand — remaining binding: 100%.

Block 2 — tested at: 1 µM
SMILES: Cc1ccc(NC(=O)c2ccnc(C(F)(F)F)c2)cc1-c1cc(OCCO)nc(N2CCOCC2)c1
The remaining binding was 100% (STK17B (Homo sapiens, UniProt O94768); competitive binding panel, refers to: DRAK2; relative to: vehicle).
The remaining binding was 100% (MARK4 (Homo sapiens, UniProt Q96L34); competitive binding panel; relative to: vehicle).
CDK4 (Homo sapiens, UniProt P11802); competitive binding scan; together with: cyclin D3 — remaining binding: 100%.
For MAP3K6 (Homo sapiens, UniProt O95382); competitive binding panel, refers to: ASK2; relative to: vehicle: remaining binding read 87%.
It gave 82% for remaining binding (INSRR (Homo sapiens, UniProt P14616); competitive binding panel; relative to: vehicle).
The remaining binding was 92% (RET (Homo sapiens, UniProt P07949); competitive binding panel; relative to: vehicle).
For BMPR1A (Homo sapiens, UniProt P36894); competitive binding panel; relative to: vehicle: remaining binding read 88%.
For PTK2B (Homo sapiens, UniProt Q14289); competitive binding panel, refers to: PYK2; relative to: vehicle: remaining binding read 100%.
It gave 83% for remaining binding (MINK1 (Homo sapiens, UniProt Q8N4C8); competitive binding; MINK).
For CDK11A (Homo sapiens, UniProt Q9UQ88); competitive binding panel, refers to: CDC2L2; relative to: vehicle: remaining binding read 49%.
IRAK4 (Homo sapiens, UniProt Q9NWZ3); competitive binding panel; relative to: vehicle — remaining binding: 100%.
For AKT3 (Homo sapiens, UniProt Q9Y243); competitive binding panel; relative to: vehicle: remaining binding read 100%.

Block 3 — read-out: enzyme activity; action: inhibitor; tested at: 0.5 µM; relative to: control
SMILES: N#CC(c1ccnc(NCCc2cccnc2)n1)c1nc2ccccc2s1 (stereo not shown)
For HIPK1 (Homo sapiens, UniProt Q86Z02): remaining activity read 109%.
The remaining activity was 97.7% (STK25 (Homo sapiens, UniProt O00506)).
The remaining activity was 92.3% (Cyclin-dependent kinase 3, with cyclin E (CDK3, Homo sapiens, UniProt Q00526)).
It gave 91% for remaining activity (FER (Homo sapiens, UniProt P16591)).
The remaining activity was 104% (AKT1 (Homo sapiens, UniProt P31749)).
The remaining activity was 85.2% (ALK (Homo sapiens, UniProt Q9UM73)).
PASK (Homo sapiens, UniProt Q96RG2) — remaining activity: 64.1%.
SRC (Homo sapiens, UniProt P12931) — remaining activity: 86.8%.
ITK (Homo sapiens, UniProt Q08881) — remaining activity: 98.8%.
FYN (Homo sapiens, UniProt P06241) — remaining activity: 93.1%.
TAOK3 (Homo sapiens, UniProt Q9H2K8) — remaining activity: 87.5%.
For Insulin receptor (INSR, Homo sapiens, UniProt P06213): remaining activity read 100%.
It gave 90.2% for remaining activity (LIM domain kinase 1 (LIMK1, Homo sapiens, UniProt P53667)).
The remaining activity was 96.3% (PKN1 (Homo sapiens, UniProt Q16512)).
For FLT4 (Homo sapiens, UniProt P35916): remaining activity read 86.1%.
For CDC42BPA (Homo sapiens, UniProt Q5VT25): remaining activity read 99.6%.
It gave 94.9% for remaining activity (MARK3 (Homo sapiens, UniProt P27448)).
The remaining activity was 89.8% (MATK (Homo sapiens, UniProt P42679)).
NEK11 (Homo sapiens, UniProt Q8NG66) — remaining activity: 118%.
For FGR (Homo sapiens, UniProt P09769): remaining activity read 86.1%.
It gave 94.9% for remaining activity (NLK (Homo sapiens, UniProt Q9UBE8)).

Block 4 — read-out: enzyme activity; action: inhibitor; tested at: 77 µM; relative to: untreated
Target: DNA polymerase theta, ATPase domain (POLQ, Homo sapiens, UniProt O75417)
UniProt O75417, sequence (whole entry, unmodified, looked up): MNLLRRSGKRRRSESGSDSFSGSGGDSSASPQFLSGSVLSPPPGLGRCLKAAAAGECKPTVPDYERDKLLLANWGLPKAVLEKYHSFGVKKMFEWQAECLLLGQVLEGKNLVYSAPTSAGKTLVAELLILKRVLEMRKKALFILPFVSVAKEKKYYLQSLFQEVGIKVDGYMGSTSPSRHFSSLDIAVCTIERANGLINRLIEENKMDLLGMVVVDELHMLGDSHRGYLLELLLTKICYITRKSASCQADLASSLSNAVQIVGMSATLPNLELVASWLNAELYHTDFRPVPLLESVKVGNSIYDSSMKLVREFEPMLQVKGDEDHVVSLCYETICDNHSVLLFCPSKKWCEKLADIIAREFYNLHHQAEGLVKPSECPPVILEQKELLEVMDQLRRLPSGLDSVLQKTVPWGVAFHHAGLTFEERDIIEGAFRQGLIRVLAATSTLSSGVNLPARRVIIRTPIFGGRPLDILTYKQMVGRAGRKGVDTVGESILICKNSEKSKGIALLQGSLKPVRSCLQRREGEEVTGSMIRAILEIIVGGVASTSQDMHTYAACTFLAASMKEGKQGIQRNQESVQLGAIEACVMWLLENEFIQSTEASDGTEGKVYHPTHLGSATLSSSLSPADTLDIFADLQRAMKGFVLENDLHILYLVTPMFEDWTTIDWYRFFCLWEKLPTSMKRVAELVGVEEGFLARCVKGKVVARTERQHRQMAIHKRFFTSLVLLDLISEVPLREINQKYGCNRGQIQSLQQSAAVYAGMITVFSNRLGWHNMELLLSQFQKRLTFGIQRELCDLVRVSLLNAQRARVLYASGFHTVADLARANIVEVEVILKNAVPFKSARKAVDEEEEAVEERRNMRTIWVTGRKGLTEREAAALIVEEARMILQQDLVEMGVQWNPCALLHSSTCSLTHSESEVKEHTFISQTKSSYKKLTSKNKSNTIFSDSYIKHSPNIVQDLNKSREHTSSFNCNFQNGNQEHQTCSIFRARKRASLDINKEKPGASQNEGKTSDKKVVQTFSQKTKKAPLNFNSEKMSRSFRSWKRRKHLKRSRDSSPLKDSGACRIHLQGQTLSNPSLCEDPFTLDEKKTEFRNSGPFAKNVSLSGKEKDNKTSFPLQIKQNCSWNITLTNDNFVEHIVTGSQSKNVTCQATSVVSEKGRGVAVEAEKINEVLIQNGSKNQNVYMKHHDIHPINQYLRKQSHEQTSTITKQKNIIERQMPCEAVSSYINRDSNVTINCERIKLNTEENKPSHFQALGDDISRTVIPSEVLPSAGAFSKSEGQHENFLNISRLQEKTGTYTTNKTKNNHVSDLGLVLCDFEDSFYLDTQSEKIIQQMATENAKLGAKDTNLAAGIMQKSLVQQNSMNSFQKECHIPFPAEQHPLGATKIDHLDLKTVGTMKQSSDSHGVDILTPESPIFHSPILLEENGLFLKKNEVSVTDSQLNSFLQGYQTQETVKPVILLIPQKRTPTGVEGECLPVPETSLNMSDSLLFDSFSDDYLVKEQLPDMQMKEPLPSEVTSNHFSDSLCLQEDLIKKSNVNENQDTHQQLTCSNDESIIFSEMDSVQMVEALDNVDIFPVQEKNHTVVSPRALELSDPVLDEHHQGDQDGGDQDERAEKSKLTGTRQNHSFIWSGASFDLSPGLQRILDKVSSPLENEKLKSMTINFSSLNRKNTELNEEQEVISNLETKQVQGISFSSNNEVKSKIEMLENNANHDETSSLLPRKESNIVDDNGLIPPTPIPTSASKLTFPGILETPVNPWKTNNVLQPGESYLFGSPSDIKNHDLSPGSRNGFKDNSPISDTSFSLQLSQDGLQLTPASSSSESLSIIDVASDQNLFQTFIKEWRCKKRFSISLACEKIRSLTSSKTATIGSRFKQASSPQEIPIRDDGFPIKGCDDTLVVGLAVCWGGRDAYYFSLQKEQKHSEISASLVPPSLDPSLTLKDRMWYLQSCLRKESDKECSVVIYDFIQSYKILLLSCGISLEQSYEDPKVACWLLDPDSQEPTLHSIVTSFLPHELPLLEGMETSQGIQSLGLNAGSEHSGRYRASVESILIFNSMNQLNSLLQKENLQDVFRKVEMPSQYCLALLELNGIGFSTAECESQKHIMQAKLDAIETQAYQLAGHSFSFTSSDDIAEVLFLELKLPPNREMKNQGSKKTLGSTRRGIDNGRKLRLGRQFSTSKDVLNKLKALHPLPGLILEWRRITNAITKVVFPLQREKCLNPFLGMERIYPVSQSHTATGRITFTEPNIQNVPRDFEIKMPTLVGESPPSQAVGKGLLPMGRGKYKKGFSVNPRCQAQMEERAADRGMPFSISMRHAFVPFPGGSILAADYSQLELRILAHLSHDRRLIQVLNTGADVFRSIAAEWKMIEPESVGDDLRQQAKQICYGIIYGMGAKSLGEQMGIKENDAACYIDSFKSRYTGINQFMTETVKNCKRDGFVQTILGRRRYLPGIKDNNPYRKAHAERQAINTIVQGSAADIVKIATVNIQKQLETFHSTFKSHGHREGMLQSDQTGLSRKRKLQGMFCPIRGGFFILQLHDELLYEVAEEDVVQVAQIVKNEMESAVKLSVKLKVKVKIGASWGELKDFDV
For `CN(C)/N=N/c1[nH]cnc1C(N)=O`, the remaining activity was 94.3% and 110%.
For `CC1=CC(=O)c2ccccc2C1=O`, the remaining activity was 92.3%.
With `O=C1C(CC[S+]([O-])c2ccccc2)C(=O)N(c2ccccc2)N1c1ccccc1` (stereo not shown) the remaining activity was 98.8%.
`CO/N=C(\C(=O)N[C@@H]1C(=O)N2C(C(=O)OCOC(=O)C(C)(C)C)=C(/C=C\c3scnc3C)CS[C@H]12)c1csc(N)n1` has a remaining activity of 97.2%.
For `COc1cc2c(c(OC)c1OC)-c1ccc(OC)c(=O)cc1[C@@H](NC(C)=O)CC2`, the remaining activity was 98% and 101%.
`O=C1NC(=O)c2c1c(-c1ccccc1Cl)cc1[nH]c3ccc(O)cc3c21` has a remaining activity of 99.2%.
For `CC(O)(P(=O)(O)O)P(=O)(O)O`, the remaining activity was 100%.
`COc1c(O[C@@H]2O[C@H](CO)[C@@H](O)[C@H](O)[C@H]2O)cc2c(c1OC)-c1ccc(SC)c(=O)cc1[C@@H](NC(C)=O)CC2` has a remaining activity of 100%.
For `C[C@]12CCC(=O)C=C1[C@@H]1C[C@@H]1[C@H]1[C@@H]3[C@@H]4C[C@@H]4[C@@]4(CCC(=O)O4)[C@@]3(C)CC[C@@H]12`, the remaining activity was 98%.
`O=C(CSc1nc2c(c(=O)n1-c1ccccc1)SCC2)Nc1ccc(-c2ccccc2)cn1` gave a remaining activity of 99.6%.
`CN(C)[C@@H]1C(O)=C(C(N)=O)C(=O)[C@@]2(O)C(O)=C3C(=O)c4c(O)ccc(Cl)c4[C@@](C)(O)[C@H]3C[C@@H]12` has a remaining activity of 99%.
For `COc1ccc(/C=C/c2nc(NCCCN(C)C)c3ccccc3n2)cc1`, the remaining activity was 89.8%.
`O=c1cc(-c2cccc3c2Sc2ccccc2S3)oc(N2CCOCC2)c1` has a remaining activity of 98.7% and 97.5% and 102% and 86.7%.
`COc1ccc(-c2cc3c(C)nc(N)nc3n([C@H]3CC[C@H](OCCO)CC3)c2=O)cn1` gave a remaining activity of 99.2%.
The remaining activity of `O=C(O)c1cccc(-c2noc(-c3ccccc3F)n2)c1` is reported as 84.6%.
`CCCCCCCCN[C@@H](C)[C@H](O)c1ccc(SC(C)C)cc1` (racemic) has a remaining activity of 96.5%.
`Oc1c(Br)cc(Br)c2cccnc12` has a remaining activity of 107%.
With `CC(C)Oc1ccc(C(=O)N[C@H](CNC(=O)CN(C)C)Cc2ccc(-c3cn4cccc([C@H](C)O)c4n3)cc2)cc1Cl` the remaining activity was 83%.

Repeated from above (block 1):
For CDK13 (Homo sapiens, UniProt Q14004); cell-free assay, competition with immobilised ligand: remaining binding read 100%.
For STK32C (Homo sapiens, UniProt Q86UX6); cell-free assay, competition with immobilised ligand: remaining binding read 100%.
ERN1 (Homo sapiens, UniProt O75460); cell-free assay, competition with immobilised ligand — remaining binding: 100%.
MAP3K6 (Homo sapiens, UniProt O95382); cell-free assay, competition with immobilised ligand — remaining binding: 100%.
For MET (Homo sapiens, UniProt P08581, Y1235D); cell-free assay, competition with immobilised ligand: remaining binding read 90%.
It gave 100% for remaining binding (NEK3 (Homo sapiens, UniProt P51956); cell-free assay, competition with immobilised ligand).
For EGFR (Homo sapiens, UniProt P00533, T790M); cell-free assay, competition with immobilised ligand: remaining binding read 94%.
For BMPR1B (Homo sapiens, UniProt O00238); cell-free assay, competition with immobilised ligand: remaining binding read 100%.
HASPIN (Homo sapiens, UniProt Q8TF76); cell-free assay, competition with immobilised ligand — remaining binding: 100%.
The remaining binding was 88% (CDK19 (Homo sapiens, UniProt Q9BWU1); competition binding).
WEE1 (Homo sapiens, UniProt P30291); cell-free assay, competition with immobilised ligand — remaining binding: 100%.
The remaining binding was 100% (CHUK (Homo sapiens, UniProt O15111); cell-free assay, competition with immobilised ligand).
